Experimental data collected from several papers.
A part holds a random share of what one study measured. “And” joins repeats or separate records; there may be more than shown. Substitutions count along the parent as printed.
Sequence of UniProt P10721 (whole entry, unmodified, looked up): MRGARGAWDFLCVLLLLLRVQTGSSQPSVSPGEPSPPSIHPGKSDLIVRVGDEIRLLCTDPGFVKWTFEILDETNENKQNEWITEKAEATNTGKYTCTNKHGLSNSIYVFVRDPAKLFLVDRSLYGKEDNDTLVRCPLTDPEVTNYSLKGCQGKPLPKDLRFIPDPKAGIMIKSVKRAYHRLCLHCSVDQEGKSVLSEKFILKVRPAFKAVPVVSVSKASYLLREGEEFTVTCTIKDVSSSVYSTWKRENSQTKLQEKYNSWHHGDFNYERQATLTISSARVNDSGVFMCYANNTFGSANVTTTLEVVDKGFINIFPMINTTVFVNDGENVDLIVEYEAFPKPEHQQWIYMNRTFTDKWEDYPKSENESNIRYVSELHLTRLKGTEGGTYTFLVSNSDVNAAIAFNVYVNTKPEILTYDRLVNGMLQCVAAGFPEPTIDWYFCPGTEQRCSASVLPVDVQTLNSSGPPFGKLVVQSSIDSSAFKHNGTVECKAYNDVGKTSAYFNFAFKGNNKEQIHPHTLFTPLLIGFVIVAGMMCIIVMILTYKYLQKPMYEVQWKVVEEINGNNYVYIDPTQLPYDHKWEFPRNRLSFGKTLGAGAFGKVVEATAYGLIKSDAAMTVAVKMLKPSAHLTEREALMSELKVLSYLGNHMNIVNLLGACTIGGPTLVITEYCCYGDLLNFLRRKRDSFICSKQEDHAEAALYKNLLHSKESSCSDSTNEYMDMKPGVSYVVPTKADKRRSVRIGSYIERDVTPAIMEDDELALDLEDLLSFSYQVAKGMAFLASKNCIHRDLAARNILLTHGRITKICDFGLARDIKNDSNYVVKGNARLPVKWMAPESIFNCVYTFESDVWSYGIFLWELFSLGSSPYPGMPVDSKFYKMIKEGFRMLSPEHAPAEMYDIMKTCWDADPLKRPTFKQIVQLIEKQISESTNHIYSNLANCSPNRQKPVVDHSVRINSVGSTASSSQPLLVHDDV
Sequence of UniProt P00519 (whole entry, unmodified, looked up): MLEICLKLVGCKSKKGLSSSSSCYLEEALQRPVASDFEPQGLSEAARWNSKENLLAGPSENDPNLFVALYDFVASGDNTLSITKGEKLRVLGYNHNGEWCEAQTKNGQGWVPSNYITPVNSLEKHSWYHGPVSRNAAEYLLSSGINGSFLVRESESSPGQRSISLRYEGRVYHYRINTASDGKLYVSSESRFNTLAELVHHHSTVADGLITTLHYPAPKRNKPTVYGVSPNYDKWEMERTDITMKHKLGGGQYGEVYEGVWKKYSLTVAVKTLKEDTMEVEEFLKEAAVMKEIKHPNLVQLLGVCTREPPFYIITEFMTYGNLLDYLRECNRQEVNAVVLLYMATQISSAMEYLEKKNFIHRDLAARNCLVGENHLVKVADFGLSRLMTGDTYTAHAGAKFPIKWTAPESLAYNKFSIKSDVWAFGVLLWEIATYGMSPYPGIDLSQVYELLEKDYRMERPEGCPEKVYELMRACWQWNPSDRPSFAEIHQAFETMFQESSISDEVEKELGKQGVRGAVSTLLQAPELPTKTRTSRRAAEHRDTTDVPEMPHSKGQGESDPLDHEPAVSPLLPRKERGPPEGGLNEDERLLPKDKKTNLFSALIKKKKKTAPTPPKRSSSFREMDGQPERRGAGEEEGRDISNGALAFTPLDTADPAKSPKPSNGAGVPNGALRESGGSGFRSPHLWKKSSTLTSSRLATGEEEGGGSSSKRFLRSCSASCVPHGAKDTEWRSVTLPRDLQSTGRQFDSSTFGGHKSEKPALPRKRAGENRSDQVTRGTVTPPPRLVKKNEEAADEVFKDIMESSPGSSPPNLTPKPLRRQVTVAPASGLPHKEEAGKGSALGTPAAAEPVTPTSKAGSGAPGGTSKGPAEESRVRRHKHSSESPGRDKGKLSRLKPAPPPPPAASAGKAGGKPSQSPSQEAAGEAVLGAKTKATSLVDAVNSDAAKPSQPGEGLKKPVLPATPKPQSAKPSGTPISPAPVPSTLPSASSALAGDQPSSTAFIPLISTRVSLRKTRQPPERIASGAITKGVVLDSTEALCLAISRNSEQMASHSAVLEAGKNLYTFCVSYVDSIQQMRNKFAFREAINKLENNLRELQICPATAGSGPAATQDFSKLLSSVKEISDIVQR
Sequence of UniProt O60285 (whole entry, looked up): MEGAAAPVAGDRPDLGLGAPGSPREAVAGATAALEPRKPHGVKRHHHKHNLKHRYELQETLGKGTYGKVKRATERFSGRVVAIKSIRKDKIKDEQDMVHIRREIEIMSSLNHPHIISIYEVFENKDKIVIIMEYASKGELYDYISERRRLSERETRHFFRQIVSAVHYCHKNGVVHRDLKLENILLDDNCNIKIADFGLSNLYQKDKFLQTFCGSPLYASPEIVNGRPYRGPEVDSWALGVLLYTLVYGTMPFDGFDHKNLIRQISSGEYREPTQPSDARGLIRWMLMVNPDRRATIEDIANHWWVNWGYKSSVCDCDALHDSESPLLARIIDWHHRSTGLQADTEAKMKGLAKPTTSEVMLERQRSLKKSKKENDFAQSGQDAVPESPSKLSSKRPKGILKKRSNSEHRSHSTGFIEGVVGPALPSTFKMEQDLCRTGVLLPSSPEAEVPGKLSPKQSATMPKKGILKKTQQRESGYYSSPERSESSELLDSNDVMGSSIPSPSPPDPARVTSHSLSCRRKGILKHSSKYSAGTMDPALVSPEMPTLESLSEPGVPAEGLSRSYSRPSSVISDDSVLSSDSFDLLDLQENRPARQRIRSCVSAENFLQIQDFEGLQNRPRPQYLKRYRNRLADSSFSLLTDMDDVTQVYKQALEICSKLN
Sequence of UniProt Q8NFD2 (whole entry, looked up): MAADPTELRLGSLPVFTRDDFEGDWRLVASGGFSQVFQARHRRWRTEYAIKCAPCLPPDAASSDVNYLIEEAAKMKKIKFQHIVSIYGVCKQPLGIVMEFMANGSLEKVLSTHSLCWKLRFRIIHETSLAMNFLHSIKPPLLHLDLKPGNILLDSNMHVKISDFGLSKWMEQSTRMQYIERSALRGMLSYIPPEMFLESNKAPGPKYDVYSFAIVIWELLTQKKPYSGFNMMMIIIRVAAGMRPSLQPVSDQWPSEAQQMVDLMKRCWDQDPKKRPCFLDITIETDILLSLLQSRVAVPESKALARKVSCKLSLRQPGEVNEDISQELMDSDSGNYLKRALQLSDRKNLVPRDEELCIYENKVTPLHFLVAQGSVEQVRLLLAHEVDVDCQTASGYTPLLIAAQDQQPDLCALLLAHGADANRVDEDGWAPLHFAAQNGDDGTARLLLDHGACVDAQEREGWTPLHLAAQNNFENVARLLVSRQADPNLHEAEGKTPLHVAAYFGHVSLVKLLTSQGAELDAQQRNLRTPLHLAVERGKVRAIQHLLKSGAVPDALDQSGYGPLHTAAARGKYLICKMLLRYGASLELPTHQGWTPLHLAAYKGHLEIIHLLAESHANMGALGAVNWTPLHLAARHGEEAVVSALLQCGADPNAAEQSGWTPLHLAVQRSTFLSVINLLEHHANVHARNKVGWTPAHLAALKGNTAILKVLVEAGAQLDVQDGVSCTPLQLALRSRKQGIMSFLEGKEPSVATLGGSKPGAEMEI
Sequence of UniProt Q15418 (whole entry, looked up): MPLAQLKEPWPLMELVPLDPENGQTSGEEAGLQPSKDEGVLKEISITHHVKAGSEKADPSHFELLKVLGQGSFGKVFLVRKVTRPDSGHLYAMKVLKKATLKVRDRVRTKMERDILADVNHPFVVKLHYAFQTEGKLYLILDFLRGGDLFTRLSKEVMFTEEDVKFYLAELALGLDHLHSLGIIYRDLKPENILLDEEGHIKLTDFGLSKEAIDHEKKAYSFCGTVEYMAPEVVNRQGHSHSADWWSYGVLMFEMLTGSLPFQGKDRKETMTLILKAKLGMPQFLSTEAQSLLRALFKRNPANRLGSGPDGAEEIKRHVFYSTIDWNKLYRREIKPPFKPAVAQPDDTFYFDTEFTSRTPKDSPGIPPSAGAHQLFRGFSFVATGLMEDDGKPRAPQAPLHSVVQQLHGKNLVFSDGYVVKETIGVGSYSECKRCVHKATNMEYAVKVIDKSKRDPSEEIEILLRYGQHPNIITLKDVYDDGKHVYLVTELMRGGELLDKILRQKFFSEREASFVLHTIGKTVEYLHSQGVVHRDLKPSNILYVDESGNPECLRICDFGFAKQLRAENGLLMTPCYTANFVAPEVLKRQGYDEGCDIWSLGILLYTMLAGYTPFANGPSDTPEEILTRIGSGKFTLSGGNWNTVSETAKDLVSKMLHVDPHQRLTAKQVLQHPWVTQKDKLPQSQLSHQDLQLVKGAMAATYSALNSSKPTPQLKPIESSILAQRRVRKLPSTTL
Sequence of UniProt P51817 (whole entry, looked up): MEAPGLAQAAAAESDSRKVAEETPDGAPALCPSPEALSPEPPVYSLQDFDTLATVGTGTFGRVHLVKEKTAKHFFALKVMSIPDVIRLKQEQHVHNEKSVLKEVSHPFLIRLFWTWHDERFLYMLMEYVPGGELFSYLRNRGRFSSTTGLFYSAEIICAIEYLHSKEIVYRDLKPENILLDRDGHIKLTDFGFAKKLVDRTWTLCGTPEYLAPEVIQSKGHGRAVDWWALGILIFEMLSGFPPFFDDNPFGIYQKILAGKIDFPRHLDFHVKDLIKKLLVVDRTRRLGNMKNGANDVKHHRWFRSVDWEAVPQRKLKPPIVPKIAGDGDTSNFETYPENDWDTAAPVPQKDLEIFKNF

Study 1
Cell line: mouse MPNST tumor cells
Method: high-content nuclear imaging
Measured: cell number
Concentration: 10 µM
Time: 12 h
Notes: mean of 2 replicates
Baseline: plate mean
Direction: higher = more cells
`NC12CC3CC(CC(C3)C1)C2` has a nuclei count of 0.591 z-score and 0.0623 z-score.
`Nc1nc2c(cnn2CCc2ccccc2)c2nc(-c3ccco3)nn12` has a nuclei count of 0.756 z-score.
With `Cc1[nH]cnc1CN1CCc2c(c3ccccc3n2C)C1=O` the nuclei count was 1.13 z-score.

Study 2
Structure (SMILES): CS(=O)(=O)c1cc(C2(NC(=O)c3cncc4c3cnn4-c3ccc(F)cc3)CC2)ccn1
Method: competition with immobilised ligand
Concentration: 1 µM
It gave 83% for remaining binding (PIK3CA (Homo sapiens, UniProt P42336, C420R); cell-free assay).
PRKCE (Homo sapiens, UniProt Q02156); cell-free assay — remaining binding: 100%.
The remaining binding was 100% (STK35 (Homo sapiens, UniProt Q8TDR2); cell-free assay).
MAPK7 (Homo sapiens, UniProt Q13164); cell-free assay — remaining binding: 75%.
It gave 100% for remaining binding (MAP3K1 (Homo sapiens, UniProt Q13233); cell-free assay).
It gave 91% for remaining binding (NUAK1 (Homo sapiens, UniProt O60285); cell-free assay).
The remaining binding was 96% (ANKK1 (Homo sapiens, UniProt Q8NFD2); cell-free assay).
For BMPR1A (Homo sapiens, UniProt P36894); cell-free assay: remaining binding read 100%.
The remaining binding was 83% (Tyrosine-protein kinase JAK1, JH2 (JAK1, Homo sapiens, UniProt P23458); cell-free assay).
It gave 98% for remaining binding (ACVR2A (Homo sapiens, UniProt P27037); cell-free assay).
Ribosomal protein S6 kinase alpha-1, C-terminal kinase domain (RPS6KA1, Homo sapiens, UniProt Q15418); cell-free assay — remaining binding: 79%.
The remaining binding was 96% (PI4KB (Homo sapiens, UniProt Q9UBF8); cell-free assay).
PIP5K1C (Homo sapiens, UniProt O60331); cell-free assay — remaining binding: 95%.
It gave 81% for remaining binding (MAP2K1 (Homo sapiens, UniProt Q02750); cell-free assay).
For Tyrosine-protein kinase ABL1, phosphorylated (ABL1, Homo sapiens, UniProt P00519, F317L); cell-free assay: remaining binding read 68%.
Tyrosine-protein kinase ABL1, non-phosphorylated (ABL1, Homo sapiens, UniProt P00519, F317I); binding — remaining binding: 98%.
It gave 85% for remaining binding (PRKX (Homo sapiens, UniProt P51817); cell-free assay).
It gave 100% for remaining binding (PIM3 (Homo sapiens, UniProt Q86V86); cell-free assay).
It gave 88% for remaining binding (KIT (Homo sapiens, UniProt P10721, V559D/V654A); cell-free assay).
It gave 96% for remaining binding (KIT (Homo sapiens, UniProt P10721); cell-free assay).
Tyrosine-protein kinase JAK3, JH1 (JAK3, Homo sapiens, UniProt P52333); cell-free assay — remaining binding: 75%.

Study 3
Target: CRIPT, C-terminal peptide
Method: DHFR complementation, deep sequencing
Medium: yeast
Notes: single substitutions, model-inferred values
Baseline: wild type
Direction: higher = weaker binding
Starting sequence: ERBIN, PDZ domain 1 (human); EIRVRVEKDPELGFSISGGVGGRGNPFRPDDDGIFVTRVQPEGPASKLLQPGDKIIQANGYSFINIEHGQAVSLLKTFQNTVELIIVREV; partner TKNYKQTSV
`E67M`: “binding free energy change” 0.232 kcal/mol.
`K54W`: “binding free energy change” 0.367 kcal/mol.
Under “binding free energy change”, `T37H` is recorded as 0.627 kcal/mol.
For `L12H`, “binding free energy change” read 1.62 kcal/mol.
For `R23E`, “binding free energy change” read -1.17 kcal/mol.
`E67K`: “binding free energy change” 0.157 kcal/mol.
For `G52V`, “binding free energy change” read 0.416 kcal/mol.
`L12N`: “binding free energy change” 0.962 kcal/mol.

Study 4
Cell line: A-375
Concentration: 100 µM
Time: 36 h
The viability of `COc1ccc2cc(CCC(C)=O)ccc2c1` is reported as 97.7%.
`CCN(CC)C(=O)c1ccc(O)c(OC)c1` gave a viability of 121%.
The viability of `CCC(=O)O[C@@H](O[P@](=O)(CCCCc1ccccc1)CC(=O)N1C[C@H](C2CCCCC2)C[C@H]1C(=O)O)C(C)C` is reported as 109%.
The viability of `O=C(O)C1=CO[C@@H](O[C@@H]2O[C@H](CO)[C@@H](O)[C@H](O)[C@H]2O)[C@@H]2C(CO)=CC[C@H]12` is reported as 95.4%.
`CC(=O)NO` has a viability of 113%.

Study 5
Target: CCNB3, cyclin fold, Cln2 fusion (human)
Method: yeast growth competition, sequencing
Medium: yeast
Notes: strong parent motif
Baseline: not given
Direction: higher = stronger binding
Starting sequence: RBL2 docking peptide (human); STTRRRLFVENDS; partner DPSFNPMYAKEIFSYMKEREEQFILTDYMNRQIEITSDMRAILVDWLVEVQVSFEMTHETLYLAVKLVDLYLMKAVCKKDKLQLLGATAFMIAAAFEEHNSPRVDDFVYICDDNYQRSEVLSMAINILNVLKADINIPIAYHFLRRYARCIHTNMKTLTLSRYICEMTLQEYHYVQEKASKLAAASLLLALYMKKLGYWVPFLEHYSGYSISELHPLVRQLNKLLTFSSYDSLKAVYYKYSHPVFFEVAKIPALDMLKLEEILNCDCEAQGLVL
`SETRRRLFVENDS [T2E]` — result for “normalised enrichment score”: 1.18.
For `STTRRRLFVINDS [E10I]`, “normalised enrichment score” read 0.0206.
For `STTRRRLFVENDT [S13T]`, “normalised enrichment score” read 0.781.
`STTRRRKFVENDS [L7K]`: “normalised enrichment score” -0.292.
Under “normalised enrichment score”, `STTRRRLFLENDS [V9L]` is recorded as 0.706.
`STTRRRLFVENHS [D12H]`: “normalised enrichment score” 0.331.
`STLRRRLFVENDS [T3L]`: “normalised enrichment score” 0.712.
`STTRRRLFVENQS [D12Q]`: “normalised enrichment score” 0.673.

Study 6
Host: mouse
Medium: microsomes or S9
Concentration: 2 µM
Time: 0.5 h
For `COc1cc(C(=O)N2CCN(C)CC2)c(N(C)S(C)(=O)=O)cc1OC`, the remaining compound was > 100%.
The remaining compound of `Cc1noc(C)c1-c1cc(CCC2CNCCO2)ncn1` (stereo not shown) is reported as > 100%.
`O=c1[nH]nc2c3scc(-c4ccc(F)cc4)c3ncn12` has a remaining compound of 71.6%.
With `O=c1c2ccc(F)cc2ncn1C/C=C/c1ccccc1` the remaining compound was 69.7%.

A few entries again (study 1):
With `Cc1[nH]cnc1CN1CCc2c(c3ccccc3n2C)C1=O` the nuclei count was 1.13 z-score.
`NC12CC3CC(CC(C3)C1)C2` has a nuclei count of 0.591 z-score and 0.0623 z-score.
`Nc1nc2c(cnn2CCc2ccccc2)c2nc(-c3ccco3)nn12` has a nuclei count of 0.756 z-score.
